{"data": "Measurements pooled from the literature", "note": "Numbered parts are unrelated; each lists some results of a single study. Values joined by “and” are separate records of one study, mostly repeats; a detail may differ.", "chain of UniProt Q9BWU1 (whole entry, looked up)": "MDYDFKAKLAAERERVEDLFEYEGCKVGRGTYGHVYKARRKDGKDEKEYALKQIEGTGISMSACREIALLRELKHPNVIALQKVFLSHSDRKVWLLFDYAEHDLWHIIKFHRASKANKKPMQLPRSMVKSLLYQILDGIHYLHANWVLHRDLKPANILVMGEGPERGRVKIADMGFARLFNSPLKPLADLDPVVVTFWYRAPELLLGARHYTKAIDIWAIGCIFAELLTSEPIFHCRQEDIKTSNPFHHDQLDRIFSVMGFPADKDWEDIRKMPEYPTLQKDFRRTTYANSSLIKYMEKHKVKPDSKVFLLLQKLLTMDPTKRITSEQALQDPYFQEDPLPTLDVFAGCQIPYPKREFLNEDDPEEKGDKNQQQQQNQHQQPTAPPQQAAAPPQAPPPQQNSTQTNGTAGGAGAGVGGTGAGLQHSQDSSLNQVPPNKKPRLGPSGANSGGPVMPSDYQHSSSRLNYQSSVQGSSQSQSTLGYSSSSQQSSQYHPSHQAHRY", "chain of UniProt Q9UQ88 (whole entry, looked up)": "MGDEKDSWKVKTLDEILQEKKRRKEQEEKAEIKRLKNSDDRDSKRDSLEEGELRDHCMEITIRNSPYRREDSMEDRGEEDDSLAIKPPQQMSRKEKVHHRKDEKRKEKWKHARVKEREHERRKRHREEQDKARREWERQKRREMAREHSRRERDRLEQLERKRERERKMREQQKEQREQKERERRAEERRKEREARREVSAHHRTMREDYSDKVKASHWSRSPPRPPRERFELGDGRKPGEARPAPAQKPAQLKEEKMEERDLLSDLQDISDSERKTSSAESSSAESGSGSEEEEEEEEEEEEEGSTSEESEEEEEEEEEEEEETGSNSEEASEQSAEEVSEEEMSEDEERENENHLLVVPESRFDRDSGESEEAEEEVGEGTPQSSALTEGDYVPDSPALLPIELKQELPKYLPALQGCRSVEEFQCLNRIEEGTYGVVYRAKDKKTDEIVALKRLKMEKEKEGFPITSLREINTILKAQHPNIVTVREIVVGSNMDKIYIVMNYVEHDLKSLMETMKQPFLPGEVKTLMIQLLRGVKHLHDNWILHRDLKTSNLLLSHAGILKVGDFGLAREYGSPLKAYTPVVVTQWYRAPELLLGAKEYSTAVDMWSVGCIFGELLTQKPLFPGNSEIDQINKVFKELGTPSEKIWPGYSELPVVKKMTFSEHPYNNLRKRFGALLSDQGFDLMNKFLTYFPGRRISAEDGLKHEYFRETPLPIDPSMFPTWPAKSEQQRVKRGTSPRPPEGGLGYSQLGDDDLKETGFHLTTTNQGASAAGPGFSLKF", "chain of UniProt Q9H0K1 (whole entry, looked up)": "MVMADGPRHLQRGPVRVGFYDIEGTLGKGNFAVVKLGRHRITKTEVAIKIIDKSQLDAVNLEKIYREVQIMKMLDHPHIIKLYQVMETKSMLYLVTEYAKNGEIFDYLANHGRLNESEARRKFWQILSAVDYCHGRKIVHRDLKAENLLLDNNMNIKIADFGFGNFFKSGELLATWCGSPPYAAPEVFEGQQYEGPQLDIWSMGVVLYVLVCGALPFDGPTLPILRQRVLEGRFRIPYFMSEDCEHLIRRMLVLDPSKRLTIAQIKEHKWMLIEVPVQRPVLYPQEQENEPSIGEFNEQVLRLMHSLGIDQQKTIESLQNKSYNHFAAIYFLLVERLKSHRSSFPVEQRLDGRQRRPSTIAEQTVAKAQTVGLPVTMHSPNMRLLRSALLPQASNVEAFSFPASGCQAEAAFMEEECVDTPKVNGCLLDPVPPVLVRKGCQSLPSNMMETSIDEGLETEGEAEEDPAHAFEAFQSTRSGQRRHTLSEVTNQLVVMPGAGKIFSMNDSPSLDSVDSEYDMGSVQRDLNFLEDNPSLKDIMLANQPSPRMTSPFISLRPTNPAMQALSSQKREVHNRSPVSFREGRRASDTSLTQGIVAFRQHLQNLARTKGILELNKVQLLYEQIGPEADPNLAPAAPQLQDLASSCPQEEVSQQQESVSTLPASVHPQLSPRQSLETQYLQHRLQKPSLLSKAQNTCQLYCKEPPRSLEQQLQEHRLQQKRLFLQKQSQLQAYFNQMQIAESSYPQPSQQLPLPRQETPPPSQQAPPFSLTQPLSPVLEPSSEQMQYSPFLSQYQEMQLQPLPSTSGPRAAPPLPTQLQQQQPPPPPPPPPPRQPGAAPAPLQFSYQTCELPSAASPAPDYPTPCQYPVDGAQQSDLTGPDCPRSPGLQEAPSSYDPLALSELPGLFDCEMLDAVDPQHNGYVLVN"}
{"data": "Set 1", "host": "human", "matrix": "microsomes or S9", "tested at": "2 µM", "time": "0.5 h"}
{"SMILES": "COC(=O)c1cccc2[nH]c(NCc3c(C)nn(C(C)(C)C)c3C)nc12", "remaining compound": "27.5%"}
{"SMILES": "O=C(OCc1ccccc1)N1CCC2(CC1)CNc1ccccc12", "remaining compound": "9.66%"}
{"SMILES": "Cc1ccn(-c2ccc(NS(=O)(=O)c3ccc(C4CNC(=O)C4)cc3)cc2)n1 (stereo not drawn)", "remaining compound": "50%"}
{"SMILES": "CCOC(=O)c1c(=O)n2cccnc2c2c(C)cccc12", "remaining compound": "1.96%"}
{"data": "Set 2", "SMILES": "Nc1cnc(N2CCc3cc(S(=O)(=O)Nc4c(F)cc(Cl)cc4F)cc(N4CCCC4=O)c32)nc1", "tested at": "1 µM"}
{"target": "SIK2 (Homo sapiens, UniProt Q9H0K1)", "read-out": "cell-free assay", "method": "competition with immobilised ligand", "remaining binding [%]": 100}
{"target": "CDK11A (Homo sapiens, UniProt Q9UQ88)", "read-out": "cell-free assay", "method": "competition with immobilised ligand", "remaining binding [%]": 89}
{"target": "CDK19 (Homo sapiens, UniProt Q9BWU1)", "method": "competition binding", "remaining binding [%]": 100}
{"data": "Further values, each from its own experiment"}
{"SMILES": "c1ccc2c(-c3nn4c(-c5ccncc5)nnc4s3)c[nH]c2c1", "tested on": "α-galactosidase (human, wild type)", "test system": "healthy dermal fibroblasts", "conditions": "0.5 µM, without ISRIB", "how to read": "reference: DMSO", "quantity": "remaining activity", "value": "123% and 150% and 107% and 114%"}
{"SMILES": "CCC[C@@H]1NC(=O)CSC[C@@H](C(=O)OCC)N(C)C(=O)[C@H](CC(C)C)NC(=O)[C@@H](C)N(C)C(=O)[C@@H](CC(C)C)NC(=O)[C@H](C)N(C)C(=O)[C@@H]2CCCN2C(=O)[C@@H](CC(C)C)NC(=O)CN(CCC)C1=O", "test system": "hydrocarbon/water", "quantity": "logD", "value": 1.32}
{"note": "A few entries again (set 1):"}
{"SMILES": "CCOC(=O)c1c(=O)n2cccnc2c2c(C)cccc12", "remaining compound": "1.96%"}
